Assay results pooled from the literature.
Lines come from different studies, so protocols differ. ± gives the spread as reported.
Cell line: A549

| SMILES | assay | conditions | measurement | value |
| --- | --- | --- | --- | --- |
| NC([S-])=NN=CC=NN=C(N)[S-].O=[N+]([O-])[O-].[Co+3].c1c[nH]cn1.c1c[nH]cn1 | cell viability, MTT | 24 h hypoxic, 48 h normoxic, hypoxic treatment | IC50 | 2.9 ± 0.7 µM |
| CC(C)[C@H](CO)Nc1nc(Nc2cc(N)cc(Cl)c2)c2ncn(C(C)C)c2n1 | cell growth or viability, resazurin | 5 days | IC50 | > 10 µM |
| N.N.[Cl][Pt][Cl] | cell growth or viability, MTT |  | IC50 | 49.4 µM |
| N.N.[Cl][Pt][Cl] | cell viability, MTT | 48 h | IC50 | 22.4 ± 0.64 µM |
| CO[C@H]1/C=C\C=C(/C)C(=O)NC2=CC(=O)C(NCCN(C)C)=C(C[C@@H](C)C[C@H](OC)[C@H](O)[C@@H](C)/C=C(\C)[C@@H]1OC(N)=O)C2=O | cell growth or viability, resazurin | 5 days | IC50 | < 0.01 µM |
| N.N.[Cl][Pt][Cl] | cell viability, MTT | 24 h then 48 h recovery, normoxia | IC50 | 5.5 ± 3.2 µM |
| CN(C)c1cc2c(Nc3ccc4c(cnn4Cc4ccccc4)c3)ncnc2cn1 | cell growth or viability, resazurin | 5 days | IC50 | > 10 µM |
| N.N.[Cl][Pt][Cl] | cell viability, MTT | 4 h | IC50 | 12.8 ± 4.94 µM |
| NC(=S)N/N=C/C=N/NC(N)=S | cell viability, MTT | 24 h hypoxic, 48 h normoxic, hypoxic treatment | IC50 | 0.04 ± 0.01 µM |
| CCCCCCCCCC(=O)N[C@@H](Cc1ccccc1)C(=O)N[C@H](C(=O)NCC(=O)N[C@H](C(=O)N[C@@H](CC(C)C)C(=O)N[C@H](C(=O)N1CCC[C@H]1C(=O)N[C@@H](CC(C)C)C(=O)N[C@@H](C)C(=O)N[C@@H](CC(C)C)C(=O)NCC(=O)N[C@@H](C)C(=O)N[C@@H](CC(C)C)C(=O)N[C@H](C(=O)N[C@@H](CCCCN)C(=O)N[C@@H](CC(C)C)C(=O)N[C@@H](Cc1ccccc1)C(=O)N[C@@H](CCCCN)C(N)=O)[C@@H](C)O)[C@@H](C)CC)[C@@H](C)O)[C@@H](C)CC | cell growth or viability, CCK-8 | 24 h | IC50 | 13.5 µM |
| O=[N+]([O-])[O-].O=[N+]([O-])[O-].[Co+2] | cell viability, MTT | 24 h hypoxic, 48 h normoxic, hypoxic treatment | IC50 | > 500 µM |
| CC[C@H](C)[C@H](NC(=O)[C@H]([C@@H](C)CC)N(C)C(C)=O)C(=O)N[C@H](C(=O)N[C@@H](CC(C)C)C(=O)[C@@]1(C)CO1)[C@@H](C)O |  | 250 nM, live cells, preincubation, with: TAS1-3 probes 10 µM | decrease of probe cleavage rate | > 25% |
